Experimental data from different studies.
A part holds a random share of what one study measured. Positions count from the first letter of the parent shown.
Sequence of UniProt Q9UQM7 (whole entry, looked up): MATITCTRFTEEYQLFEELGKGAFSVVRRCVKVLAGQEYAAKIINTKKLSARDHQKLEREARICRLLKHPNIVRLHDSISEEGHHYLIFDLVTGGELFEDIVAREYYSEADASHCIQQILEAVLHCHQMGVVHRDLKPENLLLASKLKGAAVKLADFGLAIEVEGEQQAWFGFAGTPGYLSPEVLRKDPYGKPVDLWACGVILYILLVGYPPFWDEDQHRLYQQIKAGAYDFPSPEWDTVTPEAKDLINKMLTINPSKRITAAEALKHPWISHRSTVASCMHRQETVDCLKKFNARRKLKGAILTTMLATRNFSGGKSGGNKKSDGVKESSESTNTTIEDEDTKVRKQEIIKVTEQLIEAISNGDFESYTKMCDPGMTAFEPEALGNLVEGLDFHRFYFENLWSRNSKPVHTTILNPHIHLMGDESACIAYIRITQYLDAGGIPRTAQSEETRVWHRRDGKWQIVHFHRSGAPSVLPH

Set 1 — target: UBE2D3 UBC core domain (UniProt P61077); technique: yeast two-hybrid; matrix: yeast; setting: mostly zero background; reference: not given; reading: higher = stronger interaction
B1: UBOX5 RING domain (UniProt O94941); chain EQPGSILGPECASCKRVFSPYFKKEPVYQLPCGHLLCRPCLGEKQRSLPMTCTACQRPVASQDVLR
B2: RNF133 RING domain (UniProt Q8WVZ7); chain DEEINPNGDSCVICFERYKPNDIVRILTCKHFFHKNCIDPWILPHGTCPICKCDILKVLGIQ
B3: RBCK1 RING domain (UniProt Q9BYM8); chain SLVLNTEPAECPVCYSVLAPGEAVVLRECLHTFCRECLQGTIRNSQEAEVSCPFIDNTYSCSGKLLEREIK
B4: DTX2 RING domain (UniProt Q86UW9); chain EELKVPPDEDCIICMEKLSTASGYSDVTDSKAIGSLAVGHLTKCSHAFHLLCLLAMYCNGNKDGSLQCPSCKTIYGEKTGTQ
B5: MDM4 RING domain (UniProt O15151); chain MEDCQNLLKPCSLCEKRPRDGNIIHGRTGHLVTCFHCARRLKKAGASCPICKKEIQLVIKVF
Target sequence (chain): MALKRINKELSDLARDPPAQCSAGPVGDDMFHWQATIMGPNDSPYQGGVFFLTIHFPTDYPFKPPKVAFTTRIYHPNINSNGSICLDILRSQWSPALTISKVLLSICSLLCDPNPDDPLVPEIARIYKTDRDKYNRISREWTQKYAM
| Molecule | lacZ reporter activity |
| --- | --- |
| B1 (UBOX5 RING domain) | 0 |
| B2 (RNF133 RING domain) | 17500 |
| GSDDEEIPFKCFICRQSFQNPVVTKCRHYFCESCALQHFRTTPRCYVCDQQTNGVFNPA (RNF113A RING domain (UniProt O15541)) | 0 |
| KLRKLKEAMLCMVCCEEEINSTFCPCGHTVCCESCAAQLQSCPVCRSRVEHVQHVY (MYLIP RING domain (UniProt Q8WY64)) | 0 |
| FDGDVDPDLKCALCHKVLEDPLTTPCGHVFCAGCVLPWVVQEGSCPARCRGRLSAKELN (PDZRN3 RING domain (UniProt Q9UPQ7)) | 0 |
| B3 (RBCK1 RING domain) | 0 |
| B4 (DTX2 RING domain) | 0 |
| B5 (MDM4 RING domain) | 0 |

Set 2 — target: CCNB1, cyclin fold, Cln2 fusion (human); technique: yeast growth competition, sequencing; matrix: yeast; setting: strong parent motif; reference: not given; reading: higher = stronger binding; starting sequence: viral docking peptide; KGVKRKLFAEDSS
| Substitution | normalised enrichment score |
| --- | --- |
| V3L | 0.73 |
| F8R | 0.378 |
| S12R | 1.59 |
| A9E | 3.02 |
| G2V | 1.54 |
| G2E | 2.99 |
| D11P | 1.56 |
| E10A | 1.21 |

Further values, each from its own experiment
| Structure (SMILES) | target or system | test | conditions | how to read | endpoint | value |
| --- | --- | --- | --- | --- | --- | --- |
| NC(=O)C[S+]([O-])C(c1ccccc1)c1ccccc1 (stereo not drawn) | Sarcocystis neurona | parasite growth | 10 µM, 96 h, second screen | reference: untreated | log2 fold change | 0.15 |
| C=C1C[C@@H]2[C@H](CC[C@]3(C)C(=O)CC[C@@H]23)[C@@]2(C)C=CC(=O)C=C12 | HaCaT |  | 100 µM, 36 h |  | viability | 20.2% |
| COC1=CC(=O)OC(/C=C/c2ccccc2)C1 (stereo not drawn) | Calcium/calmodulin-dependent protein kinase type II subunit alpha (CAMK2A, Homo sapiens, UniProt Q9UQM7) | enzyme activity, inhibitor | 10 µM |  | inhibition | -11% |
| Cc1nnc2n1-c1ccc(Cl)cc1C(c1ccccc1)=NC2 | Sarcocystis neurona | parasite growth | 10 µM, 96 h, second screen | reference: untreated | log2 fold change | 0.14 |
| N[C@@H](Cc1ccc(N(CCCl)CCCl)cc1)C(=O)O | HaCaT |  | 100 µM, 36 h |  | viability | 43.1% |

Excerpt of the above (set 1):
| Molecule | lacZ reporter activity |
| --- | --- |
| B5 (MDM4 RING domain) | 0 |
| B1 (UBOX5 RING domain) | 0 |
